{"data": "Results pooled from the literature", "TLK1": "Serine/threonine-protein kinase tousled-like 1 (TLK1, Homo sapiens, UniProt Q9UKI8)", "note": "Compare with care: the assays were run in different laboratories.", "chain of UniProt Q9UKI8 (whole entry, looked up)": "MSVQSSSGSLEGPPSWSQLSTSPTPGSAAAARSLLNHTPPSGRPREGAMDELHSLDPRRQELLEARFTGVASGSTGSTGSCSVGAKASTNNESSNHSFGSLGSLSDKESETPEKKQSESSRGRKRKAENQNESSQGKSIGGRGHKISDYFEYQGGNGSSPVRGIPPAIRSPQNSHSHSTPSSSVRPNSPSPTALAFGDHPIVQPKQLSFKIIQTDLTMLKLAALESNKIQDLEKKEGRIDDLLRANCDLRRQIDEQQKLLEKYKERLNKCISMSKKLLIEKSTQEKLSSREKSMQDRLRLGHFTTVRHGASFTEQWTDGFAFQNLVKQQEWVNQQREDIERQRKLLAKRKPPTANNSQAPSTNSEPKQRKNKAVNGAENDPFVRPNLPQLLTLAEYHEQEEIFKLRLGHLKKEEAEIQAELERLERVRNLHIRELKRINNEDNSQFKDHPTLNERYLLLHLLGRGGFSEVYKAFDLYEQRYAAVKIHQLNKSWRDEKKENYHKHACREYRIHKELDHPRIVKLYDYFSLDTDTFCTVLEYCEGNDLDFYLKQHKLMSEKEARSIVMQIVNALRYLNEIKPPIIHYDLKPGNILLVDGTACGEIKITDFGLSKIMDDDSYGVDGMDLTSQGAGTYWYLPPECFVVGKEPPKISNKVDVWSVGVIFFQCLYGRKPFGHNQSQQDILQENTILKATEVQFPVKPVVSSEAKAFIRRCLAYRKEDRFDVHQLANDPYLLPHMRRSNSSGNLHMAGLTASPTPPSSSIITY", "chain of UniProt Q9HBH9 (whole entry, looked up)": "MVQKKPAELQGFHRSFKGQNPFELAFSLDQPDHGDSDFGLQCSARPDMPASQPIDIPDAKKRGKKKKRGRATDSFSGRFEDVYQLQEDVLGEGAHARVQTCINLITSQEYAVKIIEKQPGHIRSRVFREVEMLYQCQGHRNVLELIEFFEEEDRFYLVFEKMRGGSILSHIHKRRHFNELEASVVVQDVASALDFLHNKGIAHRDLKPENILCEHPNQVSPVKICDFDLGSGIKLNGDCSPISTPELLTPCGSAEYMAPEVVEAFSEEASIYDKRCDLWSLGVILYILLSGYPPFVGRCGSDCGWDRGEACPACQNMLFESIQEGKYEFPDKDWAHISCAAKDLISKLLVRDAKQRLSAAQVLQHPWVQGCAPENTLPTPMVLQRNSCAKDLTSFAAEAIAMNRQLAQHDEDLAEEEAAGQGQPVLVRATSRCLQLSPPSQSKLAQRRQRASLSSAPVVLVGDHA", "chain of UniProt Q9Y2H9 (whole entry, looked up)": "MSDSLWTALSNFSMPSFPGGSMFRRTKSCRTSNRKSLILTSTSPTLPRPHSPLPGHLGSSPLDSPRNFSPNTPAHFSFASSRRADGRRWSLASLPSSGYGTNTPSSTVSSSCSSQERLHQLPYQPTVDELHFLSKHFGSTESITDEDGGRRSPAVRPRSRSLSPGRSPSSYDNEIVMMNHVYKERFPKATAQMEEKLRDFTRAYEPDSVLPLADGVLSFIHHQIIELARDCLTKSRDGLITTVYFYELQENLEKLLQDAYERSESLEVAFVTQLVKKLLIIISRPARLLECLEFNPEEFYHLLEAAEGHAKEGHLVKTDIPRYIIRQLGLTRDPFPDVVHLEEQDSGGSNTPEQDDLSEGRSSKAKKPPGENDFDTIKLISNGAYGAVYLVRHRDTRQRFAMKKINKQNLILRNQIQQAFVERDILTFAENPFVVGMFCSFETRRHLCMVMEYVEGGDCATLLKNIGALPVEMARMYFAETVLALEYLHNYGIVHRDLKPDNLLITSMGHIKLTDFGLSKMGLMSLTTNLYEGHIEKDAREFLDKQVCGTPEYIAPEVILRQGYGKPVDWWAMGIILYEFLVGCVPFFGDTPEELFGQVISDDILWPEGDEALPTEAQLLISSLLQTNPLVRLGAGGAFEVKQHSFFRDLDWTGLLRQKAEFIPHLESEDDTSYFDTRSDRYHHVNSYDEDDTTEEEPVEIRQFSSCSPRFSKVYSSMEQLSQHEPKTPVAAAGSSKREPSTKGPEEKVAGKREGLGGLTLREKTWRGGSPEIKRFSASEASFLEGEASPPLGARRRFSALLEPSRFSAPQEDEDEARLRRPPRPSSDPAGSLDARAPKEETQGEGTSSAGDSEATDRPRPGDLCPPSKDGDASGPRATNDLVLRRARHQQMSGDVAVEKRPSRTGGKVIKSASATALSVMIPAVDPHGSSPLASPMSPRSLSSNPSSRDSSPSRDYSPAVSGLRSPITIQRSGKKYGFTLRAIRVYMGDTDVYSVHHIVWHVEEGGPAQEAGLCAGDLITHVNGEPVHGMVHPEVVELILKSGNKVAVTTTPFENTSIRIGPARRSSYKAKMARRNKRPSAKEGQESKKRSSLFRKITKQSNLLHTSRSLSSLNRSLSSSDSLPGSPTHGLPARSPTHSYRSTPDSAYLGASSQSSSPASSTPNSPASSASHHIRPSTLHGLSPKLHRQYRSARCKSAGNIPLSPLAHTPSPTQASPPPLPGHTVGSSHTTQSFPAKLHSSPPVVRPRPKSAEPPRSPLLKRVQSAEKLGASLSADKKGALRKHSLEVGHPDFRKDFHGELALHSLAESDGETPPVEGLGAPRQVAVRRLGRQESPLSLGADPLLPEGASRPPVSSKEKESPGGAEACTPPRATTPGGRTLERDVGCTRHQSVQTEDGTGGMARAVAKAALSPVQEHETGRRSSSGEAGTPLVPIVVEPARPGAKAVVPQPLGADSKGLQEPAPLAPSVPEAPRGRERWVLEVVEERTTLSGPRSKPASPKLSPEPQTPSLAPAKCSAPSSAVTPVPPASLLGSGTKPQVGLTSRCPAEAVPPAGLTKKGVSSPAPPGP", "chain of UniProt Q9UIK4 (whole entry, looked up)": "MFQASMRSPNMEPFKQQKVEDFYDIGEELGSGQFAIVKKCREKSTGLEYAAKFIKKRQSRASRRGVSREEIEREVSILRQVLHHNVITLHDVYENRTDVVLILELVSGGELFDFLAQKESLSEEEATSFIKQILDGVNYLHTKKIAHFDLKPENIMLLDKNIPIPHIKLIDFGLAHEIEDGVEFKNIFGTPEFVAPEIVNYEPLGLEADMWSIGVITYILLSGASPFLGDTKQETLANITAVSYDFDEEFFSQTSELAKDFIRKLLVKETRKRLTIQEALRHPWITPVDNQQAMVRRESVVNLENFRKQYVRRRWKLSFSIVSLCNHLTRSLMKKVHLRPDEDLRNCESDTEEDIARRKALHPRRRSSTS"}
{"Compound": "C[C@@H](O)[C@H]1C(=O)N2C(C(=O)O)=C(S[C@@H]3CN[C@H](C(=O)N(C)C)C3)[C@H](C)[C@H]12", "tested on": "Klebsiella pneumoniae", "assay": "microbial growth, broth dilution", "setting": "20 h, clinical isolate", "endpoint": "MIC", "result": "< 0.5 µg/mL"}
{"Compound": "CN(C)c1cc(NC(=O)c2ccccn2)c(O)c2c1C[C@H]1C[C@H]3[C@H](N(C)C)C(O)=C(C(N)=O)C(=O)[C@@]3(O)C(O)=C1C2=O", "tested on": "Mycobacterium tuberculosis", "assay": "microbial growth, broth dilution", "system": "H37RV", "setting": "7 days, pH 7.4", "endpoint": "MIC", "result": "> 200 µg/mL"}
{"Compound": "CCOC(=O)CNC(=O)CO/N=c1\\cc2n(-c3ccc(Cl)cc3)c3ccccc3nc-2cc1Nc1ccc(Cl)cc1", "tested on": "Neisseria gonorrhoeae", "assay": "microbial growth", "system": "ATCC49226", "endpoint": "MIC", "result": "3.75 µM"}
{"Compound": "O=S(=O)(Nc1nccs1)c1ccc(N=NN(O)c2ccccc2)cc1", "assay": "ABTS scavenging", "setting": "300 µg/mL", "endpoint": "inhibition", "result": "99.8%"}
{"Compound": "OC(Cn1cncn1)(Cn1cncn1)c1ccc(F)cc1F", "tested on": "Lodderomyces parapsilosis", "assay": "microbial growth", "system": "ATCC22019", "endpoint": "MIC", "result": "1 µg/mL"}
{"Compound": "C=CC(=O)N1CCC(COCC(=O)N2CCN(c3nc(-c4cnc(N)nc4C(F)F)nc(N4CCOC[C@@H]4C)n3)CC2)CC1", "tested on": "MAST1 (Homo sapiens, UniProt Q9Y2H9)", "assay": "binding, competition with immobilised ligand", "setting": "1 µM", "endpoint": "remaining binding", "result": "97%"}
{"Compound": "Cc1c(NC(=O)OC[C@@H]2COCCN2)cn2ncnc(Nc3ccc4c(cnn4Cc4cccc(F)c4)c3)c12", "tested on": "Staphylococcus aureus", "assay": "microbial growth", "system": "NCTC8325", "endpoint": "MIC", "result": "> 30 µM"}
{"Compound": "CC[C@H]1OC(=O)[C@H](C)[C@@H](O[C@H]2C[C@@](C)(OC)[C@@H](O)[C@H](C)O2)[C@H](C)[C@@H](O[C@@H]2O[C@H](C)C[C@H](N(C)C)[C@H]2O)[C@](C)(O)C[C@@H](C)/C(=N\\OCOCCOC)[C@H](C)[C@@H](O)[C@]1(C)O", "tested on": "Streptococcus pneumoniae", "assay": "microbial growth, agar dilution", "system": "ATCC49619", "endpoint": "MIC", "result": "2 µg/mL"}
{"Compound": "CCCCC(=O)Nc1ccc(-c2ccc3ncn(CCC)c(=O)c3c2)cn1", "tested on": "DAPK2 (Homo sapiens, UniProt Q9UIK4)", "assay": "binding, competition with immobilised ligand", "setting": "0.5 µM", "endpoint": "remaining binding", "result": "100%"}
{"Compound": "O=C(O)c1cn(C2CC2)c2cc(N3CCNCC3)c(F)cc2c1=O", "tested on": "Klebsiella pneumoniae", "assay": "microbial growth, broth dilution", "system": "ATCC27736", "endpoint": "MIC", "result": "0.03 µM"}
{"Compound": "CN(C)c1cc(NC(=O)Cc2ccn(C)n2)c(O)c2c1C[C@H]1C[C@H]3[C@H](N(C)C)C(O)=C(C(N)=O)C(=O)[C@@]3(O)C(O)=C1C2=O", "tested on": "Mycobacterium tuberculosis", "assay": "microbial growth, broth dilution", "system": "H37RV", "setting": "7 days, pH 7.4", "endpoint": "MIC", "result": "0.8 µg/mL"}
{"Compound": "O=C(O)c1cn(C2CC2)c2cc(N3CCNCC3)c(F)cc2c1=O", "tested on": "Micrococcus luteus", "assay": "microbial growth", "system": "ATCC4698", "endpoint": "MIC", "result": "1 µg/mL"}
{"Compound": "CCCNC(=O)Nc1ccc(Oc2ncnc3cc(OC)c(OC)cc23)cc1Cl", "tested on": "Staphylococcus aureus", "assay": "microbial growth", "system": "NCTC8325", "endpoint": "MIC", "result": "> 30 µM"}
{"Compound": "CN(C)c1cc(NC(=O)Cc2cnccn2)c(O)c2c1C[C@H]1C[C@H]3[C@H](N(C)C)C(O)=C(C(N)=O)C(=O)[C@@]3(O)C(O)=C1C2=O", "tested on": "Mycobacterium tuberculosis", "assay": "microbial growth, broth dilution", "system": "H37RV", "setting": "7 days, pH 7.4", "endpoint": "MIC", "result": "0.8 µg/mL"}
{"Compound": "O=C1C(Br)=C(Br)C(=O)c2ccccc21", "tested on": "Candida tropicalis", "assay": "microbial growth, broth dilution", "system": "ATCC13803", "setting": "24 h", "endpoint": "MIC", "result": "3.12 µg/mL"}
{"Compound": "CN(C)c1cc(NC(=O)Cc2cccnn2)c(O)c2c1C[C@H]1C[C@H]3[C@H](N(C)C)C(O)=C(C(N)=O)C(=O)[C@@]3(O)C(O)=C1C2=O", "tested on": "Mycobacterium tuberculosis", "assay": "microbial growth, broth dilution", "system": "H37RV", "setting": "7 days, pH 7.4", "endpoint": "MIC", "result": "1.6 µg/mL"}
{"Compound": "CC(C)(C)OC(=O)N[C@@H]1CCN(c2cc(C(=O)NCC(=O)O)ccc2NC(=O)c2cc(Br)c(Br)[nH]2)C1", "tested on": "Klebsiella pneumoniae", "assay": "microbial growth, broth dilution", "system": "ATCC700603", "endpoint": "MIC", "result": "> 32 µg/mL"}
{"Compound": "COc1cc(-c2cncc3c2CN(C)Cc2cc(N4CCNCC4)ccc2-3)cc(OC)c1OC", "tested on": "TLK1", "assay": "enzyme activity, inhibitor", "setting": "1 µM", "endpoint": "remaining activity", "result": "90%"}
{"Compound": "CCCN(O)N=Nc1ccc(S(=O)(=O)Nc2onc(C)c2C)cc1", "assay": "ABTS scavenging", "setting": "300 µg/mL", "endpoint": "inhibition", "result": "56.5%"}
{"Compound": "CN(Cc1ccc(C2(C(F)(F)F)CC2)cc1)Cc1cccc2ccccc12.Cl", "tested on": "Trichophyton rubrum", "assay": "microbial growth, broth dilution", "system": "ATCC28188", "setting": "6 days", "endpoint": "MIC", "result": "250 µg/mL"}
{"Compound": "CC(=O)NC[C@H]1CN(c2ccc(N3CCOCC3)c(F)c2)C(=O)O1", "tested on": "Staphylococcus aureus", "assay": "microbial growth", "system": "NCTC8325", "endpoint": "MIC", "result": "3 µM"}
{"Compound": "Cc1cc([C@@H](C)Nc2ccccc2C(=O)O)c2nc(N3CCC(F)(F)CC3)c(C#N)c(=O)n2c1", "tested on": "MKNK2 (Homo sapiens, UniProt Q9HBH9)", "assay": "binding, competition with immobilised ligand", "setting": "1 µM", "endpoint": "remaining binding", "result": "100%"}
{"Compound": "CN(C(=O)Nc1ccc(Cl)c(C(F)(F)F)c1)c1ccc2c(c1)OC(F)(F)O2", "tested on": "Staphylococcus aureus", "assay": "microbial growth", "system": "NCTC8325", "setting": "24 h", "endpoint": "MIC", "result": "> 100 µM"}
{"Compound": "CNc1ncc2c(/C=C/C(=O)N3CCC(OC)CC3)nn(Cc3cccc(C(F)(F)F)c3)c2n1", "tested on": "TLK1", "assay": "enzyme activity, inhibitor, radiometric", "setting": "1 µM", "endpoint": "remaining activity", "result": "92%"}
{"Compound": "OC(Cn1cncn1)(Cn1cncn1)c1ccc(F)cc1F", "tested on": "Candida albicans", "assay": "microbial growth, broth dilution", "system": "SC5314", "setting": "24 h", "endpoint": "MIC", "result": "3.12 µM"}
{"Compound": "COCC(=O)NC/C=C/c1ccc2ncnc(Nc3ccc(Oc4ccc(C)nc4)c(C)c3)c2c1", "tested on": "Staphylococcus aureus", "assay": "microbial growth", "system": "NCTC8325", "endpoint": "MIC", "result": "> 30 µM"}
{"Compound": "C#CCON=C1C=CC(=C(C#N)c2ccccc2)C=C1", "tested on": "Candida tropicalis", "assay": "microbial growth, broth dilution", "system": "ATCC13803", "setting": "48 h", "endpoint": "MIC", "result": "32 µg/mL"}
{"Compound": "CC(=O)NC[C@H]1CN(c2ccc(N3CCOCC3)c(F)c2)C(=O)O1", "tested on": "Staphylococcus epidermidis", "assay": "microbial growth", "system": "MRSE", "endpoint": "MIC", "result": "1 µg/mL"}
{"Compound": "CN[C@H](CC(C)C)C(=O)N[C@H]1C(=O)N[C@@H](CC(N)=O)C(=O)N[C@H]2C(=O)N[C@H]3C(=O)N[C@H](C(=O)N[C@H](C(=O)O)c4cc(O)cc(O)c4-c4cc3ccc4O)[C@H](O)c3ccc(c(Cl)c3)Oc3cc2cc(c3O[C@@H]2O[C@H](CO)[C@@H](O)[C@H](O)[C@H]2O[C@H]2C[C@](C)(N)[C@H](O)[C@H](C)O2)Oc2ccc(cc2Cl)[C@H]1O", "tested on": "Streptococcus pneumoniae", "assay": "microbial growth, broth dilution", "system": "ATCC49619", "setting": "20 h", "endpoint": "MIC", "result": "4 µg/mL"}
{"Compound": "CNC(=O)Nc1ccc(-c2nc(N3CC4CCC(C3)O4)c3cnn(C4CCC5(CC4)OCCO5)c3n2)cc1", "tested on": "Staphylococcus aureus", "assay": "microbial growth", "system": "NCTC8325", "endpoint": "MIC", "result": "> 30 µM"}
{"Compound": "C=CC(=O)ON=C1C=CC(=C(C#N)c2ccccc2)C=C1", "tested on": "Candida tropicalis", "assay": "microbial growth, broth dilution", "system": "ATCC13803", "setting": "48 h", "endpoint": "MIC", "result": "8 µg/mL"}
{"Compound": "C[C@@H]1CN(CC(=O)Nc2ccc3c(c2)Cc2cccc(-c4cc(=O)cc(N5CCOCC5)o4)c2S3)C[C@H](C)O1", "tested on": "Staphylococcus aureus", "assay": "microbial growth", "system": "NCTC8325", "endpoint": "MIC", "result": "> 30 µM"}
{"Compound": "OC(Cn1cncn1)(Cn1cncn1)c1ccc(F)cc1F", "tested on": "Candida albicans", "assay": "microbial growth, broth dilution", "system": "SP3931", "setting": "48 h", "endpoint": "MIC", "result": "4 µM"}
{"Compound": "CN(C)c1cc(NC(=O)Cc2ccccn2)c(O)c2c1C[C@H]1C[C@H]3[C@H](N(C)C)C(O)=C(C(N)=O)C(=O)[C@@]3(O)C(O)=C1C2=O", "tested on": "Mycobacterium tuberculosis", "assay": "microbial growth, broth dilution", "system": "H37RV", "setting": "7 days, pH 7.4", "endpoint": "MIC", "result": "0.8 µg/mL"}
{"Compound": "Clc1ccc(Nc2cc3nc4ccccc4n(-c4ccc(Cl)cc4)c-3c/c2=N\\OCc2ccccc2)cc1", "tested on": "Neisseria gonorrhoeae", "assay": "microbial growth", "system": "ATCC49226", "endpoint": "MIC", "result": "30 µM"}
{"Compound": "COc1ccc(-c2ccc3ncc4c(c3c2)n(-c2ccc(N3CCNCC3)c(C(F)(F)F)c2)c(=O)n4C)cn1", "tested on": "Staphylococcus aureus", "assay": "microbial growth", "system": "NCTC8325", "endpoint": "MIC", "result": "> 30 µM"}
{"note": "For quick reference, copied from above:"}
{"Compound": "O=S(=O)(Nc1nccs1)c1ccc(N=NN(O)c2ccccc2)cc1", "assay": "ABTS scavenging", "setting": "300 µg/mL", "endpoint": "inhibition", "result": "99.8%"}
{"Compound": "OC(Cn1cncn1)(Cn1cncn1)c1ccc(F)cc1F", "tested on": "Lodderomyces parapsilosis", "assay": "microbial growth", "system": "ATCC22019", "endpoint": "MIC", "result": "1 µg/mL"}
